# Measurements collected from several papers.
# ± gives the spread as reported.
# CYP2B6: Cytochrome P450 2B6 (CYP2B6, Homo sapiens, UniProt P20813)
# Chain of UniProt P20813 (whole entry, looked up): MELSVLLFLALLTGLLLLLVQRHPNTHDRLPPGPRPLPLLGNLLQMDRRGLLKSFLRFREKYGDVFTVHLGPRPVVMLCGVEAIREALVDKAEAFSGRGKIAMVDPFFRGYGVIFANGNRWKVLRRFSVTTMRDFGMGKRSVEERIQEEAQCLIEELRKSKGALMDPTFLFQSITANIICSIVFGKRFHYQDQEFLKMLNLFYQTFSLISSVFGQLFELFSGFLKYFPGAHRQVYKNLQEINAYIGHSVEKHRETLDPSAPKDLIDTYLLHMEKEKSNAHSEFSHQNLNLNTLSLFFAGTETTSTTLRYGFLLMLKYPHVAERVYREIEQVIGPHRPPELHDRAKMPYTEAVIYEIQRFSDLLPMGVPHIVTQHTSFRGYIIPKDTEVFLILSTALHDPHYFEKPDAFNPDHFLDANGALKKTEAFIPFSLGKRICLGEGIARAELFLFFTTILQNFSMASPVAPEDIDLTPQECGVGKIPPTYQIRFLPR
# Chain of UniProt P21554 (whole entry, looked up): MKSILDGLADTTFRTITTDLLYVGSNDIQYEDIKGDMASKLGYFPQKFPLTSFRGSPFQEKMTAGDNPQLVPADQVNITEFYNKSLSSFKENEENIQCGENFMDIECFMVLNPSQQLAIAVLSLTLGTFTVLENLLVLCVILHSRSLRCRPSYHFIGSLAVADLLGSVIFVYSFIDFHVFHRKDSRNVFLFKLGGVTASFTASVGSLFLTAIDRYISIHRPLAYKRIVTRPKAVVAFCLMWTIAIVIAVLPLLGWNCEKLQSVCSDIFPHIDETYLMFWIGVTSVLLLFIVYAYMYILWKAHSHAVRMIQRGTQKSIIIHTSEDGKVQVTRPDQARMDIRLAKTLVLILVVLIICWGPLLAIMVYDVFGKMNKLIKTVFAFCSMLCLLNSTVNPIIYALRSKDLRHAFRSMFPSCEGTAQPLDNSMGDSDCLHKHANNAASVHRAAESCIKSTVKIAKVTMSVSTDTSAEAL
# Chain of UniProt P31391 (whole entry, looked up): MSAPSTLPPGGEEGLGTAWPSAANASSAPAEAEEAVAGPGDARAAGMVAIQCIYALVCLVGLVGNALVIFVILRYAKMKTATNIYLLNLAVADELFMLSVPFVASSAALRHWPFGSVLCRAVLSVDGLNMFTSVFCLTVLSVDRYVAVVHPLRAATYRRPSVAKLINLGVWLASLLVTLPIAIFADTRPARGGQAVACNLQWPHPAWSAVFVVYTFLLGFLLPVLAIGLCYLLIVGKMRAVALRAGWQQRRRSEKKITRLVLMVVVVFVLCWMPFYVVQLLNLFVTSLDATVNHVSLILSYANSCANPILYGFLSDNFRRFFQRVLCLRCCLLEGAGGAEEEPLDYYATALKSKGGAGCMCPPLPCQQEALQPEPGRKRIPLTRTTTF
# Chain of UniProt Q92793 (whole entry, looked up): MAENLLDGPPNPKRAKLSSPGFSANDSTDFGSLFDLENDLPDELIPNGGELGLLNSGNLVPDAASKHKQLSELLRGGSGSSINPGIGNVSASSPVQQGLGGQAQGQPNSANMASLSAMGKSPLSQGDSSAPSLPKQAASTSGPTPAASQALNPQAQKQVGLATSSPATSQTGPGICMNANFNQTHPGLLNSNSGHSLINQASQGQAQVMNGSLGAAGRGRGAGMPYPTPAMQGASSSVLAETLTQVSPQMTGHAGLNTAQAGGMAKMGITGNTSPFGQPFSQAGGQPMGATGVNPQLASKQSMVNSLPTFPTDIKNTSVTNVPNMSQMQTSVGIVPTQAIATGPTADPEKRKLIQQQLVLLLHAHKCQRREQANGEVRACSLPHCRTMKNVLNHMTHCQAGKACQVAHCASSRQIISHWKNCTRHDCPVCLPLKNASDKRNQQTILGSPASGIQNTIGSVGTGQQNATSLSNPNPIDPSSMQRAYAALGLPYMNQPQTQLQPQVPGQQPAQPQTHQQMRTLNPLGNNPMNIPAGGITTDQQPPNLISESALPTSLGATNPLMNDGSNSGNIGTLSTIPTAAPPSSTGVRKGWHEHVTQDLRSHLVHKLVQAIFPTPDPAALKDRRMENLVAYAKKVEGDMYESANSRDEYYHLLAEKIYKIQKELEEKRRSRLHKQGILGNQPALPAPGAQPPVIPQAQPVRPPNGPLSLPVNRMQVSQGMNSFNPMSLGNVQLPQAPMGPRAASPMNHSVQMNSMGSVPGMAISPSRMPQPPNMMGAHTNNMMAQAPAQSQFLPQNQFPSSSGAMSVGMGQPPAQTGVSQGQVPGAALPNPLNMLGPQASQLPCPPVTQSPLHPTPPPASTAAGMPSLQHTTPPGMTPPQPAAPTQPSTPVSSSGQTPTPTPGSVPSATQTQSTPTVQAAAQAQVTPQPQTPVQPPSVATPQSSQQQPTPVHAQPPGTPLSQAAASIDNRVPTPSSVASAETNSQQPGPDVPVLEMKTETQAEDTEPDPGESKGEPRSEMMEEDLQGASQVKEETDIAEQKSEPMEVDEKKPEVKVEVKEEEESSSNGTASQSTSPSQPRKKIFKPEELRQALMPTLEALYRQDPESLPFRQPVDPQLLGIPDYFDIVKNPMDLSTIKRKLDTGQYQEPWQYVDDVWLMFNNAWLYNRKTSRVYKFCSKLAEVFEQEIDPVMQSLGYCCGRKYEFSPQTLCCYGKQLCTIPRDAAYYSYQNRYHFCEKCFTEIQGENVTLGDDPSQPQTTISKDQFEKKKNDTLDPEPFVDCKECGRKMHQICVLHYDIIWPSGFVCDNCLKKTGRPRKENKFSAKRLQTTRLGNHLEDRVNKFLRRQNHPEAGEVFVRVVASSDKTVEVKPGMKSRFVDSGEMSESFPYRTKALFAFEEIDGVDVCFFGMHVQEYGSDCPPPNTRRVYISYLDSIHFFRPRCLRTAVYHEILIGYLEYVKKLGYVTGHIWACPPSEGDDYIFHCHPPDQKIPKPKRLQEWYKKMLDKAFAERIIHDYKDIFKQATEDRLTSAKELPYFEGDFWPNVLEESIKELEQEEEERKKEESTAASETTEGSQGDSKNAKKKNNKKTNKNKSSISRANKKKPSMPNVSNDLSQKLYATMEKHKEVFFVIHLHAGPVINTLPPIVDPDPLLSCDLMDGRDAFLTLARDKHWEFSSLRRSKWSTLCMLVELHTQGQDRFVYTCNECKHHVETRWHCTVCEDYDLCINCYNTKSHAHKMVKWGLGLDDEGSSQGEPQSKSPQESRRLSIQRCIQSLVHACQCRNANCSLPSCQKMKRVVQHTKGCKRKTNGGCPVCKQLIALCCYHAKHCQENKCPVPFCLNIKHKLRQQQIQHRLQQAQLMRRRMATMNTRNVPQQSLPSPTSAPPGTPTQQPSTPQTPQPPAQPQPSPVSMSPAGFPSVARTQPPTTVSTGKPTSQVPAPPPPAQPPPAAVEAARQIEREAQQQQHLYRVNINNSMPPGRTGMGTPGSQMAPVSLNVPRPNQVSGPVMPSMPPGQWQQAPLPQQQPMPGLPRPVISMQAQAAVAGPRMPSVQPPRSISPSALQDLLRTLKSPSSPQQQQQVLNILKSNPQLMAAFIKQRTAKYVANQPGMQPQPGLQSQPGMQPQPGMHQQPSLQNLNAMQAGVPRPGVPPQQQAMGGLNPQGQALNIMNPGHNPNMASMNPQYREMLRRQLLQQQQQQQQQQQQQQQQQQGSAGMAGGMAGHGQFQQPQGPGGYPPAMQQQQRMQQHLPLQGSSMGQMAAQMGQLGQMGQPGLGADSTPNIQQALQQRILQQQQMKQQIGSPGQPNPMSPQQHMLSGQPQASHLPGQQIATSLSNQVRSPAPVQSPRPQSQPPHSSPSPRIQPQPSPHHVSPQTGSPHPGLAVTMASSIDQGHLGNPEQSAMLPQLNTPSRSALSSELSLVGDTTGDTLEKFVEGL
# Chain of UniProt P78352 (whole entry, looked up): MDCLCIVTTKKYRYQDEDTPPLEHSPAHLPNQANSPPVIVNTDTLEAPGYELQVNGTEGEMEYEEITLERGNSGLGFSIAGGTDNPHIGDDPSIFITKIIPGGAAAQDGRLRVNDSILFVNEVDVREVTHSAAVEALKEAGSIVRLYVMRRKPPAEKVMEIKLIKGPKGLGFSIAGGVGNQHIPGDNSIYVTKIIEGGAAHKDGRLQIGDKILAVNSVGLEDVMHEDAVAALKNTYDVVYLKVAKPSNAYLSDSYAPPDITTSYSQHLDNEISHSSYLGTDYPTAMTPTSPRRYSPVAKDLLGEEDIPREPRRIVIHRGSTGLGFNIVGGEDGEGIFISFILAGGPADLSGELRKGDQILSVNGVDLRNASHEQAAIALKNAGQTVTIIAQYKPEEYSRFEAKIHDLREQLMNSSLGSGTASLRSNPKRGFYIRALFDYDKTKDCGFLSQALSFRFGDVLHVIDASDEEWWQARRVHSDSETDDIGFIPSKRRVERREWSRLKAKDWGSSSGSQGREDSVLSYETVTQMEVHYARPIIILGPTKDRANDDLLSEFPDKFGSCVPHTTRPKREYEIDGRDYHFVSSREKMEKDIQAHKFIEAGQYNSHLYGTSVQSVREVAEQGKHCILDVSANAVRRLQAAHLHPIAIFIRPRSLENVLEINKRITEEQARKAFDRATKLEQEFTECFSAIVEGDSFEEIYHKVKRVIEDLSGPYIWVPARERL
Structure (SMILES),tested on,assay,test system,conditions,endpoint,value
CC(C)[C@H](N)C(=O)N[C@@H](Cc1ccc(O)cc1)C(=O)N[C@@H](CCCCN)C(=O)N[C@H](C(=O)N[C@@H](CCCCN)C(=O)N[C@H](C(=O)N[C@@H](CCCCN)C(=O)N[C@H](C(=O)N[C@@H](CCCCN)C(=O)N[C@H](C(=O)N[C@@H](CCCCN)C(=O)N[C@H](C(=O)N[C@@H](CCCCN)C(=O)N[C@H](C(=O)N[C@@H](CCCCN)C(=O)N[C@H](C(=O)N[C@@H](CCCCN)C(=O)N[C@H](C(=O)O)[C@@H](C)O)C(C)C)[C@@H](C)O)C(C)C)[C@@H](C)O)C(C)C)[C@@H](C)O)C(C)C,,"binding, SPR two-state model",rVλ6Wil fibrils,,Kd,25 nM
CCCCCn1cc(C(=O)c2cccc3ccccc23)c2ccccc21,"CNR1 (Homo sapiens, UniProt P21554)","G protein activation, agonist, BRET",,,EC50,24.5 nM
CCCCCc1cc(O)c2c(c1)OC(C)(C)C1CCC(CO)=CC21 (stereo not shown),CYP2B6,"enzyme activity, inhibitor","HEK293, liver microsomes",pH 7.4,Ki,1100 nM
C[C@@H](NC(=O)[C@@H](CCC(N)=O)NC(=O)[C@@H](C)NC(=O)[C@@H](CCCCN)NC(=O)[C@@H](CCC(N)=O)NC(=O)[C@@H](C)NC(=O)[C@@H](CCCCN)NC(=O)[C@@H](CCC(N)=O)NC(=O)[C@@H](C)NC(=O)[C@@H](CCC(N)=O)NC(=O)[C@@H](CCCCN)NC(=O)[C@@H](C)NC(=O)[C@@H](CCC(N)=O)NC(=O)[C@@H](CCCCN)NC(=O)[C@@H](C)NC(=O)[C@@H](CCC(N)=O)NC(=O)[C@@H](C)NC(=O)[C@@H](CCCCN)NC(=O)[C@@H](CCC(N)=O)NC(=O)[C@@H](C)NC(=O)[C@@H](CCCCN)NC(=O)[C@@H](CO)NC(=O)[C@@H](Cc1ccc(O)cc1)NC(=O)CNC(=O)CNC(=O)CN)C(=O)N[C@H](CCCCN)C(=O)N[C@H](CCC(N)=O)C(=O)N[C@H](C)C(=O)N[C@H](CCCCN)C(=O)N[C@H](CCC(N)=O)C(=O)O,,"binding, SPR two-state model",rVλ6Wil fibrils,300 nM,kd1,0.052 s⁻¹
CC(C)C[C@H](NC(=O)[C@H](CCCNC(=N)N)NC(=O)[C@H](Cc1ccccc1)NC(=O)[C@H](Cc1ccccc1)NC(=O)[C@@H](NC(=O)[C@@H](CO)NC(=O)[C@H](CC(C)C)NC(=O)[C@H](CO)NC(=O)CNC(=O)[C@@H](N)CO)[C@@H](C)O)C(=O)N[C@@H](Cc1ccccc1)C(=O)N[C@@H](CC(N)=O)C(=O)N[C@@H](CCCNC(=N)N)C(=O)N[C@@H](CO)C(=O)N[C@@H](Cc1ccccc1)C(=O)N[C@H](C(=O)N[C@@H](CCC(N)=O)C(=O)N[C@@H](C)C(=O)O)[C@@H](C)O,"uncharacterized protein (Streptococcus mutans serotype c, UniProt Q8DS94)",,Streptococcus mutans,,EC50,17 nM
CCS(=O)(=O)Nc1cc(-c2cn(C)c3c(=O)[nH]ccc23)cc2c1ccn2C(C)(c1ccccn1)c1ccccn1,"CREBBP (Homo sapiens, UniProt Q92793)",cell-free assay,,,IC50,116 nM
CC(C)[C@H](NC(=O)[C@H](CCCNC(=N)N)NC(=O)[C@@H](NC(=O)[C@H](CCC(N)=O)NC(=O)[C@H](CCC(N)=O)NC(=O)[C@@H](NC(=O)[C@H](Cc1c[nH]c2ccccc12)NC(=O)[C@@H]1CCCN1C(=O)[C@@H]1CCCN1C(=O)[C@H](Cc1ccc(N)cc1)NC(=O)[C@H](CO)NC(=O)CNC(=O)[C@H](CCCNC(=N)N)NC(=O)[C@H](CCCNC(=N)N)NC(=O)[C@H](CCCNC(=N)N)NC(=O)[C@H](CCCNC(=N)N)NC(=O)[C@H](CCCNC(=N)N)NC(=O)[C@@H](N)CCCNC(=N)N)C(C)C)[C@@H](C)O)C(=O)O,"Disks large homolog 4, PDZ3 domain (Homo sapiens, UniProt P78352)","binding, SPR",,"pH 7.5, 25 °C",Kd,67.8 nM
"CCCCCc1cc(O)c2c(c1)OC(C)(C)C1CCC(C)=CC21 (single isomer, unassigned; (-))",CYP2B6,inhibitor,"HEK293 overexpressing CYP2B6, recombinant microsomes","pH 7.4, corrected for incubation binding, with: bupropion",IC50,430 ± 280 nM
C[C@H](NC(=O)[C@H](CCC(N)=O)NC(=O)[C@H](CCCCN)NC(=O)[C@H](C)NC(=O)[C@@H]1CCCN1C(=O)[C@H](C)NC(=O)[C@H](CCCCN)NC(=O)[C@H](CCC(N)=O)NC(=O)[C@H](C)NC(=O)[C@H](CCCCN)NC(=O)[C@H](CCC(N)=O)NC(=O)[C@@H]1CCCN1C(=O)[C@H](CCC(N)=O)NC(=O)[C@H](CCCCN)NC(=O)[C@H](C)NC(=O)[C@H](CCC(N)=O)NC(=O)[C@H](CCCCN)NC(=O)[C@H](C)NC(=O)[C@@H]1CCCN1C(=O)[C@H](C)NC(=O)[C@H](CCCCN)NC(=O)[C@H](CCC(N)=O)NC(=O)[C@H](C)NC(=O)[C@H](CCCCN)NC(=O)[C@H](CO)NC(=O)[C@H](Cc1ccc(O)cc1)NC(=O)CNC(=O)CNC(=O)CN)C(=O)N[C@@H](CCCCN)C(=O)N[C@@H](CCC(N)=O)C(=O)O,,"binding, SPR two-state model",rVλ6Wil fibrils,,Kd,71 nM
CSCC[C@H](NC(=O)[C@@H]1CSSC[C@H](NC(=O)[C@H](CCCCN)NC(=O)[C@H](Cc2ccc(O)cc2)NC(=O)CNC(=O)[C@@H](N)CC(C(=O)O)C(=O)O)C(=O)N[C@@H](C(C)C)C(=O)N[C@H](Cc2c[nH]c3ccccc23)C(=O)N[C@@H](CCCCN)C(=O)N[C@@H]([C@@H](C)O)C(=O)N1)C(=O)N1C[C@H](O)C[C@H]1C(=O)N[C@@H](C)C(=O)O,"SSTR4 (Homo sapiens, UniProt P31391)","β-arrestin recruitment, agonist",,,EC50,5100 nM
CC[C@H](C)[C@H](NC(=O)[C@H](CCCCN)NC(=O)CNC(=O)[C@@H](NC(=O)[C@@H](NC(=O)[C@H](CC(N)=O)NC(=O)[C@H](CC(=O)O)NC(=O)[C@@H](N)CC(=O)O)C(C)C)[C@@H](C)CC)C(=O)N[C@@H](Cc1c[nH]c2ccccc12)C(=O)N[C@@H](CO)C(=O)N[C@@H](CCCCN)C(=O)N[C@@H](CC(C)C)C(=O)N[C@H](C(=O)N[C@H](C(=O)N[C@H](C(=O)N[C@H](C(=O)N[C@H](C(=O)N[C@@H](CCCCN)C(=O)N[C@H](C(=O)N[C@@H](Cc1ccccc1)C(=O)N[C@H](C(=O)N[C@@H](CCCCN)C(=O)O)[C@@H](C)O)[C@@H](C)CC)[C@@H](C)O)[C@@H](C)CC)C(C)C)[C@@H](C)O)[C@@H](C)CC,,lipid vesicle binding,POPC vesicles,pH 7.5,Kd,42000 nM
NCCCC[C@H](NC(=O)CNC(=O)CNC(=O)[C@H](CCCCN)NC(=O)CNC(=O)CNC(=O)CNC(=O)[C@H](CCCCN)NC(=O)CNC(=O)CNC(=O)[C@H](CCCCN)NC(=O)CNC(=O)CNC(=O)CNC(=O)[C@H](CCCCN)NC(=O)CNC(=O)CNC(=O)[C@H](CCCCN)NC(=O)CNC(=O)CNC(=O)CNC(=O)[C@H](CCCCN)NC(=O)CNC(=O)CNC(=O)[C@H](CCCCN)NC(=O)[C@H](CO)NC(=O)[C@H](Cc1ccc(O)cc1)NC(=O)CNC(=O)CNC(=O)CN)C(=O)NCC(=O)O,,"binding, SPR Langmuir fit",rVλ6Wil fibrils,"300 nM, pH 7.4",dissociation rate constant,0.0014 s⁻¹
CC[C@H](C)[C@H](NC(=O)CNC(=O)[C@H](CC(=O)O)NC(=O)[C@H](CC(C)C)NC(=O)[C@@H](NC(=O)[C@H](CC(N)=O)NC(=O)[C@H](CCC(N)=O)NC(=O)CNC(=O)[C@H](CC(C)C)NC(=O)[C@H](CCCCN)NC(=O)[C@H](CCC(=O)O)NC(=O)[C@@H](NC(=O)[C@H](CCCCN)NC(=O)[C@H](CCC(=O)O)NC(=O)[C@H](Cc1ccccc1)NC(=O)[C@H](CC(C)C)NC(=O)[C@H](CCCCN)NC(=O)[C@H](Cc1c[nH]c2ccccc12)NC(=O)[C@@H](N)CCC(=O)O)[C@@H](C)CC)[C@@H](C)CC)C(=O)N[C@H](C(=O)N[C@@H](CCCCN)C(=O)N[C@@H](CC(C)C)C(=O)NCC(=O)N1CCC[C@H]1C(=O)N[C@@H](CC(C)C)C(=O)N[C@@H](CC(C)C)C(=O)N[C@@H](C)C(=O)N[C@@H](CC(C)C)C(=O)N[C@@H](CC(C)C)C(=O)NCC(=O)N[C@@H](CCC(N)=O)C(=O)N[C@@H](CC(C)C)C(=O)N[C@H](C(=O)N[C@@H](CCC(N)=O)C(=O)N[C@H](C(=O)N[C@@H](C)C(=O)N[C@@H](CC(C)C)C(N)=O)[C@@H](C)CC)[C@@H](C)O)[C@@H](C)CC,,"membrane binding, stopped-flow FRET",POPC vesicles,"pH 7.5, room temperature",Kd,400000 nM

# Excerpt of the above:
Structure (SMILES),tested on,assay,test system,conditions,endpoint,value
NCCCC[C@H](NC(=O)CNC(=O)CNC(=O)[C@H](CCCCN)NC(=O)CNC(=O)CNC(=O)CNC(=O)[C@H](CCCCN)NC(=O)CNC(=O)CNC(=O)[C@H](CCCCN)NC(=O)CNC(=O)CNC(=O)CNC(=O)[C@H](CCCCN)NC(=O)CNC(=O)CNC(=O)[C@H](CCCCN)NC(=O)CNC(=O)CNC(=O)CNC(=O)[C@H](CCCCN)NC(=O)CNC(=O)CNC(=O)[C@H](CCCCN)NC(=O)[C@H](CO)NC(=O)[C@H](Cc1ccc(O)cc1)NC(=O)CNC(=O)CNC(=O)CN)C(=O)NCC(=O)O,,"binding, SPR Langmuir fit",rVλ6Wil fibrils,"300 nM, pH 7.4",dissociation rate constant,0.0014 s⁻¹
